Experimental data collected from several papers.
Each numbered part is a random draw from the data of one study; scales do not carry over between parts. Substitutions count along the parent as printed.

Sample 1
Target: CCNE2, cyclin fold, Cln2 fusion (human)
Technique: yeast growth competition, sequencing
Matrix: yeast
Notes: strong parent motif
Baseline: not given
Direction: higher = stronger binding
Endpoint: normalised enrichment score
Starting sequence: CCP110 docking peptide (human); EKVKRRLDLDIDG; partner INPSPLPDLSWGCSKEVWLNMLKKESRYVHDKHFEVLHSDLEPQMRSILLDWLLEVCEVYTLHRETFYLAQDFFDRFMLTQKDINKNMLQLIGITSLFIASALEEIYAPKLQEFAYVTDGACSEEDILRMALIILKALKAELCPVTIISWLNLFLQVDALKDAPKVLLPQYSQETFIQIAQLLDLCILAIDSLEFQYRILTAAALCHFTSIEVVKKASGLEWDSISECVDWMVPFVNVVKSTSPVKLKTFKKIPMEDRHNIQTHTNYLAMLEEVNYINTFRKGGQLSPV
EKVKRRLALDIDG [D8A]: 1.08
EKVKKRLDFDIDG [R5K L9F]: 3.47
EKVKARLDLDIDG [R5A]: -0.393
EKVKRRADLDIDG [L7A]: -0.606
EKVKKRLDLDIDG [R5K]: 0.493
EAVKRRLDLDIDG [K2A]: 1.19
EKVKARADLDIDG [R5A L7A]: 0.245
EKVKRRLDLAIDG [D10A]: 1.4
EKVKRRLDLDIDA [G13A]: 1.59
EKVKRRLDLDADG [I11A]: 0.87

Sample 2
Target: Prothrombin, mature alpha-thrombin (F2, Homo sapiens, UniProt P00734)
Technique: aptamer microarray, sandwich
Molecule type: DNA with 2'F-ANA
Matrix: in vitro
Tested at: 200 nM
Notes: whole 15-mer aptamer, many near background
Together with: Cy3 exosite-II aptamer, 400 nM
Direction: higher = stronger binding
Endpoint: mean fluorescence intensity
Strand: GGTTGGTGTGGTTGG
2'F-ANA at 3 5 7 8 9 10 14: 52.9 a.u.
2'F-ANA at 2 3 4 5 6 7 9 12 15: 166 a.u.
2'F-ANA at 2 4 9 10 12 13 14: 159 a.u.
2'F-ANA at 2 3 6 7 9 10 12: 372 a.u.
2'F-ANA at 1 2 5 6 10 12 13: 55.6 a.u.
2'F-ANA at 4 5 8 9 10 11 12: 73.8 a.u.
2'F-ANA at 2 4 5 7 9 12 13: 80.3 a.u.
2'F-ANA at 1 2 3 6 7 9 11 14: 66.9 a.u.
2'F-ANA at 3 4 5 7 8 9 10 11 12: 60.9 a.u.
2'F-ANA at 1 2 3 4 8: 259 a.u.
2'F-ANA at 1 2 6 7 11 14: 61.1 a.u.
2'F-ANA at 2 4 5 9 11 13 15: 59.3 a.u.
2'F-ANA at 1 2 5 9 14 15: 50.1 a.u.
2'F-ANA at 2 8 10 12 13 14: 101 a.u.
2'F-ANA at 1 2 5 6 7 10 11 15: 49.5 a.u.
2'F-ANA at 1 3 4 7 8: 285 a.u.
2'F-ANA at 1 2 3 10 11 12 13 15: 85.4 a.u.
2'F-ANA at 1 2 6 7 9 10 14 15: 43.1 a.u.
2'F-ANA at 2 3 4 5 7 9 11 13: 65.6 a.u.
2'F-ANA at 1 4 5 7 8 9 11 13 14: 71.9 a.u.
2'F-ANA at 1 2 5 6 7 9 10 13 15: 50.1 a.u.
2'F-ANA at 1 2 3 5 6 8 9 11 12 14: 50 a.u.
2'F-ANA at 3 4 5 6 8 9 11 15: 73 a.u.
2'F-ANA at 1 3 5 6 11 12 14 15: 47.2 a.u.

Sample 3
Target: Interferon regulatory factor 7, full length, phosphomimetic (IRF7, Homo sapiens, UniProt Q92985, residues 1-503, S471D/S472D/S475D/S476D/S477D/S483D/S484D/S487D)
UniProt Q92985, sequence (whole entry, unmodified, looked up): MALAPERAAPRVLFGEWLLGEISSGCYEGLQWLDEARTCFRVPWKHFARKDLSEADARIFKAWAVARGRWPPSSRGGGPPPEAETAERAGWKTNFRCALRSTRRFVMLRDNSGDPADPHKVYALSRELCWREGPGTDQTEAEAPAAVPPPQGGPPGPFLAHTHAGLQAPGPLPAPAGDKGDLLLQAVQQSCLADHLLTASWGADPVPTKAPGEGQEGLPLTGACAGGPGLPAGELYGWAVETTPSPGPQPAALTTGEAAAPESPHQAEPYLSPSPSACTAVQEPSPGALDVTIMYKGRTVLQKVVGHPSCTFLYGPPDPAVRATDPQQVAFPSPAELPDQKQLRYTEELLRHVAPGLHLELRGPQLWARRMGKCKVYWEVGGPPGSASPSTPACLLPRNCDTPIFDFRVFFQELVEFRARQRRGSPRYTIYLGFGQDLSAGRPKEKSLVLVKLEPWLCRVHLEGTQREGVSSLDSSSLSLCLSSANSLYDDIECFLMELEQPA
Technique: protein-binding microarray
Molecule type: double-stranded DNA, one strand shown
Matrix: in vitro
Tested at: 2200 nM top
Notes: 60-bp whole probe
Together with: salmon DNA 0.4 mg/ml
Baseline: random background probes
Direction: higher = stronger binding
Endpoint: fitted relative affinity
Constant ends, left off below: GCCTAGCAC … GTCTTGATTCGCTTGACGCTGCTG
TCAGTTTTCAGCTGTTTTACTGTGCTA: 1.95 z-score
TCAAGTGTCAATAATGACACTGTGCTA: -0.465 z-score
TCACATACGAGTTTCCAACTGTGCTAG: 1.46 z-score
TTAGATTTCAGTAACGATTAGTGCTAG: -0.229 z-score
CACGGTTTCGGGTTTCGGGACGTGCTA: 9.91 z-score
TTAGGTCTGGGTCTCGGTTAGTGCTAG: 0.22 z-score
GACGATTGCAGTTTCGAGACGTGCTAG: 3.34 z-score
TCACCTATAGGGCCTGACACTGTGCTA: 0.294 z-score
TTAGGTATCGGGTTCGGTTAGTGCTAG: 1.7 z-score
GACGGTATCGGCCTGGGGACGTGCTAG: -0.555 z-score
TCAAGAATCACAACTAGGACTGTGCTA: -0.726 z-score
ATAGGACTGCTACTGCTTTAGTGCTAG: 0.105 z-score
TTAGATTTCATTCTCGATTAGTGCTAG: 1.17 z-score
TTAGGATTGGGACTGGGTTAGTGCTAG: -0.333 z-score
GACGGTGTCCTTATCCTGACGTGCTAG: 0.493 z-score
GACGGTCTCCTTCTCCTGACGTGCTAG: 1.02 z-score
TTCGATATCGGGTTTCGATTAGTGCTA: 3.26 z-score
TTAGGTATCGATTATCGGTTAGTGCTA: 0.832 z-score
TTAGGTATCGGCTTTCGGTTAGTGCTA: 3.98 z-score

Sample 4
Target: Centromere-binding protein 1, full length, N-terminal tag (CBF1, Saccharomyces cerevisiae, UniProt P17106, residues 1-351)
UniProt P17106, sequence (whole entry, looked up): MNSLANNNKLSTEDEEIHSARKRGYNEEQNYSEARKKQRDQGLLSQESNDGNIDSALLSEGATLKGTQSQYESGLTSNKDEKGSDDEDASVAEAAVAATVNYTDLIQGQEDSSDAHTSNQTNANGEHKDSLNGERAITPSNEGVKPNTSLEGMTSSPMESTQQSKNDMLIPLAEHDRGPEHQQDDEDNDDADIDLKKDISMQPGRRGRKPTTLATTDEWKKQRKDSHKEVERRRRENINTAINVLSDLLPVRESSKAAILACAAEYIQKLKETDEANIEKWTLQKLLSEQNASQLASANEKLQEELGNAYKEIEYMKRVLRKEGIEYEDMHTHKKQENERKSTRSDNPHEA
Technique: protein-binding microarray
Molecule type: double-stranded DNA, one strand shown
Matrix: in vitro
Tested at: 0.8 µM
Notes: whole 60-bp probe, no competitor
Direction: higher = stronger binding
Endpoint: fluorescence intensity
Constant ends, left off below: … GTCTTGATTCGCTTGACGCTGCTG
CCTAACTACTATAATCACGTGATATAGCTTCGTACA: 32900 a.u.
GAAGTCGGGAGTCATGATGCGACATTTACCCGGTAG: 544 a.u.
GAACATCGTCGTCCCAATGACCACACTATTATATAG: 558 a.u.
CTACATGAGGATTAGGCCGTGATCTTCGCGCTCTTC: 543 a.u.
CTAAGAACTTGAGCTAACATCACAGAACAAAGGTTC: 557 a.u.
GAAAGAGCCACACGGCACGCCGGGGTAGCTGTTTAG: 465 a.u.
GAACCCTGAAGGAGTTTCATGATGTATGGGTCTTAG: 523 a.u.
CTAATCTTCATCATGCACGTCGGTAACGGAAGCTTC: 550 a.u.
CTATCTATCTGTATTTACGTGATTTTATGAAGTTTC: 643 a.u.
GAAATACGTCTTTGGCACGCGATTGAAACGCGCTAG: 746 a.u.
CTAGTCAAAAGAACGCACATGAAAGGAGTGACATTC: 556 a.u.
CTAGCATGTAGGAAGGTGATGATATGCTCCGTATTC: 498 a.u.
GAAGTTTGGCCCTGTCACGGTTCTTTTTATGGCTAG: 630 a.u.
GAAAATCCAGCCCATCACCCGGATATTCTGGAATAG: 478 a.u.
CTACTGACATAATTGTTGGTCACAAAATTCTTTTTC: 626 a.u.
TGTACGAAGCTATATCAGGTGGCTATAGTAGTTAGG: 737 a.u.
GAATAGACATCTCGCATGACCACAATGCTGGCTTAG: 605 a.u.
CTATACCACTGCGCACCCGTGACGCTGCTCCAATTC: 1130 a.u.
CTAAAGAAATCTTAGGACATCAGAAATGTACGTTTC: 509 a.u.

Other studies, line by line
PhoQ, residues 284 288 289 292 302 303 QWGLFV — fold induction (PhoP, residues 12 14 15 18 19 NHTVL (Escherichia coli, UniProt P23836); Sort-seq, refers to: YFP reporter; E. coli; PhoQ-PhoP variant library, together with: 10 µM Mg2+; baseline: high Mg2+ state, higher = stronger signaling): 4.02

Repeated from above (sample 3):
CACGGTTTCGGGTTTCGGGACGTGCTA: 9.91 z-score
TTAGGTCTGGGTCTCGGTTAGTGCTAG: 0.22 z-score
GACGATTGCAGTTTCGAGACGTGCTAG: 3.34 z-score
TCACCTATAGGGCCTGACACTGTGCTA: 0.294 z-score
TTAGGTATCGGGTTCGGTTAGTGCTAG: 1.7 z-score
GACGGTATCGGCCTGGGGACGTGCTAG: -0.555 z-score
TCAAGAATCACAACTAGGACTGTGCTA: -0.726 z-score
ATAGGACTGCTACTGCTTTAGTGCTAG: 0.105 z-score
TTAGATTTCATTCTCGATTAGTGCTAG: 1.17 z-score
